Published values from different studies.
Numbered parts are unrelated; each lists some results of a single study. Positions count from the first letter of the parent shown.
Sequence of UniProt P35367 (whole entry, looked up): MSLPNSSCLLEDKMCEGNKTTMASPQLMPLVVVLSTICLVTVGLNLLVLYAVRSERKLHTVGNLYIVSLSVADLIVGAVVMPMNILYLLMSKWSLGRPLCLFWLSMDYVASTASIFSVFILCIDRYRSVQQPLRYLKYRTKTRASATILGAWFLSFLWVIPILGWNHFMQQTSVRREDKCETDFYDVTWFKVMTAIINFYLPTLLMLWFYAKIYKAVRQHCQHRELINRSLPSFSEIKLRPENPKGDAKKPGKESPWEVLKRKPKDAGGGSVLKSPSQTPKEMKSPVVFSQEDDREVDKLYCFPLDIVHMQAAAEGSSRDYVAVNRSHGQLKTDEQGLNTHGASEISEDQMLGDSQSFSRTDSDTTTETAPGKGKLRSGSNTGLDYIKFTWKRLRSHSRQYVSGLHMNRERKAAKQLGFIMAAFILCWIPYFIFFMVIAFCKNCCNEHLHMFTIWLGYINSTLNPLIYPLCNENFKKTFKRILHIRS

Block 1
Target: CCNA1, cyclin fold, Cln2 fusion (human)
Technique: yeast growth competition, sequencing
Matrix: yeast
Notes: weak parent motif
Relative to: not given
Reading: higher = stronger binding
Starting sequence: viral docking peptide; KGVKRKLFAEDSS; partner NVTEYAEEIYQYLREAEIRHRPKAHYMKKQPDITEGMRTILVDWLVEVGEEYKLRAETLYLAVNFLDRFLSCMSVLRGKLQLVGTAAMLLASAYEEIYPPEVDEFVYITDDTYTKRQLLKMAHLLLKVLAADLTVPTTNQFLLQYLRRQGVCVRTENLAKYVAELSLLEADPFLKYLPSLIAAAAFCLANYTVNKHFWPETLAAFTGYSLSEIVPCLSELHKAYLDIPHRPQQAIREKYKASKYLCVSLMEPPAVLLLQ
| Change | normalised enrichment score |
| --- | --- |
| G2I | 1.17 |
| G2W | 0.579 |
| K6F | -0.39 |
| D11E | 1.1 |
| K6Q | 1.29 |
| L7E | 0.355 |
| S12R | 0.82 |
| R5T | 0.224 |
| L7F | -0.0033 |
| R5S | -0.204 |
| S12Q | 0.494 |
| G2Y | 0.875 |
| V3P | 0.805 |
| S12L | 1.28 |
| E10T | 0.43 |
| V3N | 0.0865 |
| G2A | 0.652 |
| G2M | 0.91 |
| V3D | 0.116 |

Block 2
Target: PABPC1L2, full length, GST fusion (mouse, UniProt A0ABA7IW68)
Technique: RNAcompete
Form: RNA
Matrix: in vitro
Tested at: 20 nM
Notes: 7-mer, probes averaged, single round
Relative to: mean of 7-mers
Reading: higher = stronger binding
Residues (chain): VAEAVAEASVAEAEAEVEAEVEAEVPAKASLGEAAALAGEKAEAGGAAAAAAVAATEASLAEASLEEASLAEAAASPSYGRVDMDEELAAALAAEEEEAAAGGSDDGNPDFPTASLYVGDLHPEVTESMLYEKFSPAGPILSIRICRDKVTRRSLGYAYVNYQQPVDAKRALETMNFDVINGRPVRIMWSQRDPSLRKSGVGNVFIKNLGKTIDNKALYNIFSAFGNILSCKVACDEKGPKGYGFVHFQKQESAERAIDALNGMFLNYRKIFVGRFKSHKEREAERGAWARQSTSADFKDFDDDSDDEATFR
| Oligonucleotide | 7-mer Z-score |
| --- | --- |
| AGGUAGU | -0.217 |
| ACGCAGC | -0.275 |
| UAUCUUA | -0.15 |
| UUGUUUG | -0.501 |
| GAACAUA | 0.213 |
| AUCGGAG | 0.184 |
| GACACAU | -0.0518 |
| CAUAGCG | -0.296 |

Block 3
Target: CEP164, C-terminal peptide (human)
Technique: DHFR complementation, deep sequencing
Matrix: yeast
Notes: single substitutions, model-inferred values
Relative to: wild type
Reading: higher = weaker binding
Starting sequence: PDZK1, PDZ domain 2 (human); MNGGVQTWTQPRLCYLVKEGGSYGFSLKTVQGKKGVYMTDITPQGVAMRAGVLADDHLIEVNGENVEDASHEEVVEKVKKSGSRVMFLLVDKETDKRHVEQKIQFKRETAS; partner HNRVKVYRF
| Change | binding free energy change |
| --- | --- |
| G82F | 2.56 kJ/mol |
| L58C | -0.036 kJ/mol |
| A50Q | 1.14 kJ/mol |
| E60M | 0.559 kJ/mol |
| Q10F | 1.61 kJ/mol |
| I41R | 4.8 kJ/mol |
| D91W | 0.293 kJ/mol |
| L27G | 4.74 kJ/mol |

Block 4
Target: Hepatocyte nuclear factor 3-alpha (Foxa1, Mus musculus, UniProt P35582, residues 1-468, full length assumed)
Technique: EMSA with sequencing
Form: double-stranded DNA, one strand shown
Matrix: in vitro
Tested at: 10 and 20 nM
Notes: whole designed probe, mean of two concentrations, ends assumed
Relative to: negative control set to 0
Reading: higher = stronger binding
Target sequence (chain): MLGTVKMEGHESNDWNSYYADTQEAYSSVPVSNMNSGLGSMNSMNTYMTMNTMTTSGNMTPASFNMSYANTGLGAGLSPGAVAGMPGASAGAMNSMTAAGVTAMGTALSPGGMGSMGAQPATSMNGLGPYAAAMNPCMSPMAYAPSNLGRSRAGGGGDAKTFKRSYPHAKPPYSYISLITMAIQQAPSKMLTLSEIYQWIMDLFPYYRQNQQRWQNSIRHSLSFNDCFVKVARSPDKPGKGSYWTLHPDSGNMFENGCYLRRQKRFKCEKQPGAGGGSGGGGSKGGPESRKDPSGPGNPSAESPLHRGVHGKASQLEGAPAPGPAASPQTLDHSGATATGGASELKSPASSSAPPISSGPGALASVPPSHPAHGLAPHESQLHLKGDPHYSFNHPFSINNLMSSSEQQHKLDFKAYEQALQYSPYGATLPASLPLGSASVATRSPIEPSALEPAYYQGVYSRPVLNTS
| Oligonucleotide | normalised bound fraction |
| --- | --- |
| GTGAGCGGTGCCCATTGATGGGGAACCACTAGCCAAGCAAATGCTACCTTTCCTAAATTACGCCGTGGTATTGTGTACGACAGCAGCAGGGTTGCTATTTTAAAATGGGATTGCGTAAAATAAACATGTGCCCAGATGACAGGAAGTACTAAGTTGATGATTAATTGATGCTCTGGTACGGCCTCGTGCTTTCCAGTGCTTCCATTTGTGTGACGATCCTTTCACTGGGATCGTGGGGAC | 0.244 ratio |
| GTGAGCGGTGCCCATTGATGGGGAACATCTTCCCCCTCTTCCTTGCCCCACCAGCTCACCTTCCCGGGTCAAAGTAAACAAGTGTTTACTTTGAAGCCGGCATTCGTTAACCCTCTTCTGGCGCAAACTGCTGTTTACTTTGGATCTAACATGGTCCTTTGGCGACGCCAGGCTCCGGGAGAGCAAAGCACCGTGTCAGGGCCATGATCCGGGGTGGCCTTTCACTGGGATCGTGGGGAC | 0.508 ratio |
| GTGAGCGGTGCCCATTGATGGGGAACTTGCATTTTCTAAACAAAATTTTAAAAAGATATCAAGAGTACATACAGGTCAAAAGTATTTGAGCTAAGAATGCCAAAGTCCTTACTTCCCTAGATTACTTAAGCTATAGCTTAGACACTTGGTATTTATCGATATTTTAAAGTAATCGACCAGGATTTTACATATCATATTCCTTAAAATAAAGATGTATGGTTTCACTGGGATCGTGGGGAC | -0.00457 ratio |
| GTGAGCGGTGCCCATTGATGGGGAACAAATGCCAACGTGTATTGGACTTCCCTCTAGTGGTTACATGCAAAATGACAAGCCTATAGTTCCCAAACAGAATGTTGTGTTGTTCTCTACACTGTTTACTTAGCAATCAGCATATTTACTGTGCTTCACTCCATGTACCTTCCATTCACACACTTGGCAAACACCATATCTTCCATGATATTCTCCTGTATCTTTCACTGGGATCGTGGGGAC | 0.502 ratio |
| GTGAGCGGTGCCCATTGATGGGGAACATCTTCCCCCTCTTCCTTGCCCCACCAGCTCACCTTCCCGGGTTATTTGCAGATAGGAAAATAAATAAAGCCGGCATGATGAATCATGCTTCACGCGCATACTGCCAGAGCAAACAGATCTAACATGGTCCTTTGGCGACGCCAGGCTCCGGGAGAGCAAAGCACCGTGTCAGGGCCATGATCCGGGGTGGCCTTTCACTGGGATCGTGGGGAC | 0.389 ratio |

Further values, each from its own experiment
| SMILES | target | observed | technique | tested at | measurement | value |
| --- | --- | --- | --- | --- | --- | --- |
| CNC(=O)c1cc(C(=O)NC2CC2)cn(Cc2ccccc2)c1=O | Histamine H1 receptor (HRH1, Homo sapiens, UniProt P35367) | binding | radioligand binding | 10 µM | inhibition | -13.1% |

Some of these lines once more (block 1):
| Change | normalised enrichment score |
| --- | --- |
| V3D | 0.116 |
| G2W | 0.579 |
| S12L | 1.28 |
